Assay results pooled from the literature.
Compare with care: the assays were run in different laboratories. Values joined by “and” are separate records of one study, mostly repeats; a detail may differ. ± gives the spread as reported.
Genome polyprotein NS3 helicase domain: Genome polyprotein, NS3 helicase domain (Hepatitis C virus genotype 1b, UniProt Q9WMX2)
WD repeat-containing protein 91: WD repeat-containing protein 91 (Homo sapiens, UniProt A4D1P6)
ESR1: Estrogen receptor (ESR1, Homo sapiens, UniProt P03372)
WD repeat-containing protein 91 WD40 domain, residues 392–747: WD repeat-containing protein 91, WD40 domain, residues 392–747 (Homo sapiens, UniProt A4D1P6)
Glutamate receptor 2: Glutamate receptor 2 (Homo sapiens, UniProt P42262)

`CCCCCCCCCCCCCCCCc1ccc([C@H]2CC[C@H]([N+](C)(C)CCC)CC2)cc1.[I-]` has a Ki/Km ratio of 2.7 (SPHK1 (Homo sapiens, UniProt Q9NYA1); inhibitor, radiometric flash-plate; cell lysate; together with: sphingosine 10 µM).
For `CCCCCCCCc1ccc(-c2ccc(C(=O)O)cc2)cc1`, the inhibition was 0% (Genome polyprotein NS3 helicase domain; DNA binding, inhibitor; hepatitis C virus; 100 µM, together with: Cy5-dT15 DNA).
`CC1(c2cccc([N+](=O)[O-])c2)Nc2ccccc2C(=O)N1N=Cc1cc(Br)cc(Br)c1O` (centres unmarked): activity class “active” (RORC (Homo sapiens, UniProt P51449); cell-based; concentration not given).
For `NC(=O)c1cccc(C#CCN(CC[C@H](N)C(=O)O)C[C@H]2O[C@@H](n3cnc4c(N)ncnc43)[C@H](O)[C@@H]2O)c1`, Tagg shift read “no effect” (7SK snRNA methylphosphate capping enzyme (MEPCE, Homo sapiens, UniProt Q7L2J0); cellular thermal shift; HeLa cell lysate; 50 µM; relative to: DMSO).
With `CC[C@H](C)[C@H](N)C(=O)O` the product formation was 0.18 µM (N-alpha-acetyltransferase 80 (NAA80, Homo sapiens, UniProt Q93015); substrate, DTNB; 2 mM, 30 min, 37 °C, together with: acetyl-CoA 500 µM).
For `Cc1cccc(N2CC(C(=O)O)CC2=O)c1` (centres unmarked), “log fold enrichment” read -0.0396 (WD repeat-containing protein 91; binding, affinity selection mass spectrometry; relative to: other proteins in batch).
`Nc1ncnc2c1ncn2[C@@H]1O[C@H](CO[P@](=O)(O)O[P@](=O)(O)O[P@@](=O)(O)S)[C@@H](O)[C@H]1O` gave a ΔG of -5.28 kcal/mol (GUK1 (Homo sapiens, UniProt Q16774, S18A); binding, ITC).
`O=C(O)C1CN(CCCP(=O)(O)O)CCN1` (racemic) has an inhibition of 1% (Genome polyprotein NS3 helicase domain; DNA binding, inhibitor; hepatitis C virus; 100 µM, together with: Cy5-dT15 DNA).
Under potentiation, `Cc1ccc(N(C)C(=O)/C=C/c2ccco2)cc1` is recorded as “inactive” (Voltage-dependent N-type calcium channel subunit alpha-1B (Homo sapiens, UniProt Q00975); potentiator; HEK293T; concentration not given).
The remaining activity of `COc1cc(-c2cncc3c2CN(C)Cc2cc(N4CCNCC4)ccc2-3)cc(OC)c1OC` is reported as 84% (CAMK2D (Homo sapiens, UniProt Q13557); kinase activity; 1 µM, human enzyme, together with: ATP 10 µM; relative to: DMSO control).
`O=C1CC[C@H](N2Cc3c(ccc4c3OCC43CCN(C[C@@H]4CCC5(CCN(c6ccc([C@@H]7c8ccc(O)cc8CC[C@@H]7c7ccccc7)cc6)CC5)OC4)CC3)C2=O)C(=O)N1` — result for “concentration significantly reducing ER”: 3 nM (ESR1; degrader, Western blot; T47D; 4 h).
For `COc1c(C#N)cccc1CC(=O)Nc1ccc(N2CCc3sccc3C2)cc1`, the binding was -9% and 3% (WD repeat-containing protein 91 WD40 domain, residues 392–747; SPR; 45 µM).
`CN(C)CC/C=C1/c2ccccc2Sc2ccc(Cl)cc21` gave an inhibition of 0% (Genome polyprotein NS3 helicase domain; DNA binding, inhibitor; hepatitis C virus; 100 µM, together with: Cy5-dT15 DNA).
`COC(=O)[C@@H]1CCCN1Cc1cn(-c2ccc(C(=O)N3CCC(C#N)CC3)cc2)nn1` has an SPR response of 1.1 RU and -3.9 RU (WD repeat-containing protein 91 WD40 domain, residues 392–747; binding, SPR single-concentration screen; 45 µM).
With `C=CC1=C(C)c2cc3[nH]c(cc4nc(cc5[nH]c(cc1n2)c(C)c5CCC(=O)O)C(CCC(=O)O)=C4C)c(C)c3C=C` the inhibition was 140% (Genome polyprotein NS3 helicase domain; DNA binding, inhibitor; hepatitis C virus; 100 µM, together with: Cy5-dT15 DNA).
`COc1ccc(-c2cc(=O)c3c(O)cc(O[C@@H]4O[C@H](CO)[C@@H](O)[C@H](O)[C@H]4O[C@@H]4O[C@@H](C)[C@H](O)[C@@H](O)[C@H]4O)cc3o2)cc1O` has a selectivity ratio of 0.0542 (ESR1; array formation; PRL-HeLa; relative to: EC50 ERβ over EC50 ERα).
`CC[C@@H]1[C@H](F)C(=O)N[C@@H]1COc1nccc2cc(C(N)=O)c(OC)cc12` has an inhibition of -4% (CDK2 (Homo sapiens, UniProt P24941); ATP-site probe binding, ActivX profiling; THP-1 cell lysate; 0.04 mM, Lys1 site).
With `CC(=O)NCc1ccccc1N1CCN(C(=O)c2cc3cccn3cn2)CC1` the SPR response was -6.2 RU and -1.3 RU (WD repeat-containing protein 91 WD40 domain, residues 392–747; binding, SPR single-concentration screen; 45 µM).
For `O=C1NC(=O)C(c2ccccc2)(c2ccccc2)N1`, the activation was 4% (Glutamate receptor 2; ion current, agonist, SyncroPatch patch clamp; HEK293; 10 µM).
With `CSc1nc(N)c2ncn([C@@H]3O[C@H](COP(=O)(O)OP(=O)(O)O)[C@@H](O)[C@H]3O)c2n1` the inhibition was 33% (Genome polyprotein NS3 helicase domain; DNA binding, inhibitor; hepatitis C virus; 100 µM, together with: Cy5-dT15 DNA).
For `Nc1c(Br)cc(Br)cc1CN[C@H]1CC[C@H](O)CC1`, the potentiation was 76% (Glutamate receptor 2; ion current, positive allosteric modulator, SyncroPatch patch clamp; HEK293; 10 µM).
`CCCCC[C@H](O)/C=C/[C@H]1C(=O)C[C@H](O)[C@@H]1C/C=C\CCCC(=O)O`: “Gs protein activation” 106% (PTGDR (Homo sapiens, UniProt Q13258, M112A); agonist, ONE-GO BRET; 10 µM (10 µM); relative to: wild-type receptor maximum).
`CC[C@H](C)[C@H](NC(=O)[C@H](CCCCN)NC(=O)CNC(=O)[C@@H](NC(=O)[C@@H](NC(=O)[C@H](CCSC)NC(=O)[C@H](Cc1c[nH]cn1)NC(=O)CN)[C@@H](C)O)C(C)C)C(=O)N[C@@H](Cc1ccc(O)cc1)C(=O)N[C@@H](C)C(=O)N[C@@H](C)C(=O)N[C@@H](CCSC)C(=O)N[C@@H](CCSC)C(=O)N[C@@H](C)C(=O)N[C@@H](CCSC)C(=O)N[C@@H](CCC(=O)O)C(=O)N[C@@H](Cc1ccc(O)cc1)C(=O)N[C@@H](Cc1ccc(O)cc1)C(=O)N[C@@H](CCCNC(=N)N)C(=O)N[C@@H](CCC(N)=O)C(=O)N[C@@H](CO)C(=O)N[C@@H](CCCCN)C(=O)N[C@@H](C)C(=O)N[C@@H](CCCCN)C(=O)N[C@@H](CCCCN)C(=O)N[C@@H](CC(C)C)C(=O)N[C@@H](CCC(N)=O)C(=O)N[C@@H](C)C(=O)N[C@@H](CCSC)C(=O)N[C@@H](CCCNC(=N)N)C(=O)O` gave a ΔS of 16.5 cal/mol/K (Calmodulin-1, Ca2+-bound N-lobe (CALM1, Homo sapiens, UniProt P0DP23); binding, isothermal titration calorimetry; pH 7.4, 15 °C, N-lobe, CaV2.1 IQ domain, together with: Ca2+).
`COc1cc(/C=C/c2cc(/C=C/c3ccc(O)c(OC)c3)n(-c3ccc(Cl)cc3Cl)n2)ccc1O` gave a ΔS of -196 ± 3.7 J/(mol·K) (haemin; binding, isothermal titration calorimetry; pH 7.4, 37 °C).
With `O=P(O)(O)O[C@H]1[C@H](OP(=O)(O)O)[C@@H](OP(=O)(O)O)[C@H](OP(=O)(O)O)[C@@H](OP(=O)(O)O)[C@H]1OP(=O)(O)O` the activation concentration was 10 nM (HDAC3 (Homo sapiens, UniProt O15379); deacetylase activity, activator, fluorogenic).
`NCCCS(=O)(=O)O`: “normalised MST signal” 0.85 (SLC6A6 (Homo sapiens, UniProt P31641, Y138A); binding, microscale thermophoresis; 1 mM, room temperature, together with: 50 nM labelled protein; higher = more binding).
`O=C1Nc2c(ccc(Cl)c2Cl)C1=NO` — result for “Hill coefficient for calcium”: 2 (KCNN4/CALM1 (Homo sapiens, UniProt O15554+P0DP23); inside-out patch clamp; 1 µM).
With `O=c1nc(SCc2cc(F)cc(C(F)(F)F)c2)nc(SCc2csc3ccc(Cl)cc23)[nH]1` the relaxed DNA was 95.4% (TOP2A (Homo sapiens, UniProt P11388); DNA relaxation; 1.95 µM, replicate 2).
For `N#CC1CCN(C(=O)c2ccc(CCc3ccccc3)cc2)CC1`, the SPR response was -3.9 RU and -0.9 RU (WD repeat-containing protein 91 WD40 domain, residues 392–747; binding, SPR single-concentration screen; 45 µM).
`O=[N+]([O-])c1cc(C(F)(F)F)ccc1NCc1ccsc1` gave a TΔS of 1.25 ± 0.08 kcal/mol (Endothelial PAS domain-containing protein 1, PAS-B domain (EPAS1, Homo sapiens, UniProt Q99814, N288A); binding, ITC, reverse mode).
`CN(C)C(=O)C(CCN1CCC(O)(c2ccc(Cl)cc2)CC1)(c1ccccc1)c1ccccc1` gave a V1/2 of 18 ± 5 mV (Calcium-activated potassium channel subunit alpha-1, with LRRC26 γ1 subunit (KCNMA1, Homo sapiens, UniProt Q12791); ion current, inside-out patch, mean of individual fits; BKα/γ1 channel; 0.1 µM, together with: nominally 0 Ca2+).
For `Nc1ncnc2c1ncn2[C@@H]1O[C@H](COP(=O)(O)CP(=O)(O)OP(=O)(O)O)[C@@H](O)[C@H]1O`, the specific binding was 978 CCPM and 1000 CCPM (P2X purinoceptor 1 (P2RX1, Homo sapiens, UniProt P51575, L218T); saturation binding; HEK293; 13 nM).
`O=c1c(O)c(-c2cc(O)c(O)c(O)c2)oc2cc(O)cc(O)c12` gave an inhibition of 8% (Genome polyprotein NS3 helicase domain; DNA binding, inhibitor; hepatitis C virus; 100 µM, together with: Cy5-dT15 DNA).
The ΔS of `CC[C@H](C)[C@H](NC(=O)[C@H](CCCCN)NC(=O)CNC(=O)[C@@H](NC(=O)[C@@H](NC(=O)[C@H](CCSC)NC(=O)[C@H](Cc1c[nH]cn1)NC(=O)CN)[C@@H](C)O)C(C)C)C(=O)N[C@@H](Cc1ccc(O)cc1)C(=O)N[C@@H](C)C(=O)N[C@@H](C)C(=O)N[C@@H](C)C(=O)N[C@@H](CCSC)C(=O)N[C@H](C(=O)N[C@@H](CCSC)C(=O)N[C@@H](CCC(=O)O)C(=O)N[C@@H](Cc1ccc(O)cc1)C(=O)N[C@@H](Cc1ccc(O)cc1)C(=O)N[C@@H](CCCNC(=N)N)C(=O)N[C@@H](CCC(N)=O)C(=O)N[C@@H](CO)C(=O)N[C@@H](CCCCN)C(=O)N[C@@H](C)C(=O)N[C@@H](CCCCN)C(=O)N[C@@H](CCCCN)C(=O)N[C@@H](CC(C)C)C(=O)N[C@@H](CCC(N)=O)C(=O)N[C@@H](C)C(=O)N[C@@H](CCSC)C(=O)N[C@@H](CCCNC(=N)N)C(=O)O)[C@@H](C)CC` is reported as 23 ± 0.5 cal/mol/K (Calmodulin-1, Ca2+-bound C-lobe (CALM1, Homo sapiens, UniProt P0DP23); binding, isothermal titration calorimetry; pH 7.4, 15 °C, C-lobe, CaV2.1 IQ domain, together with: Ca2+).
Under “log2 fold change”, `CCN1CCC[C@H]1CNC(=O)c1c(O)c(Cl)cc(Cl)c1OC` is recorded as 0.785 (TAAR5 (Homo sapiens, UniProt O14804); β-arrestin recruitment, TANGO luminescence; concentration not given; relative to: basal luminescence).
`Cc1ccccc1C1CC(=O)c2c(C)nc(N)nc2C1` (centres unmarked): “log fold enrichment” -0.0483 (WD repeat-containing protein 91; binding, affinity selection mass spectrometry; relative to: other proteins in batch).
With `C=CC(=O)N1CCC(COCC(=O)N2CCN(c3nc(-c4cnc(N)nc4C(F)F)nc(N4CCOC[C@@H]4C)n3)CC2)CC1` the remaining binding was 80% (MERTK (Homo sapiens, UniProt Q12866); KINOMEscan; 1 µM).
For `Cc1nc2c(OCc3ccccc3)cccn2c1CC#N`, the inhibition was 1% (Genome polyprotein NS3 helicase domain; DNA binding, inhibitor; hepatitis C virus; 100 µM, together with: Cy5-dT15 DNA).
`CCCCCCSC[C@H]1CN(Cc2c[nH]c3c(N)ncnc23)C[C@@H]1O` has a k3 of 1.3 ± 0.6 min⁻¹ (Aminodeoxyfutalosine nucleosidase (Helicobacter pylori, UniProt Q9ZMY2); forward isomerization rate).
`O=C1C[C@@H](c2ccc(O)c(O)c2)Oc2cc(O)cc(O)c21` has a selectivity ratio of 0.79 (ESR1; array formation; PRL-HeLa; relative to: EC50 ERβ over EC50 ERα).
For `CC(=O)N[C@H]1[C@H]([C@H](O)[C@H](O)CO)OC(C(=O)O)=C[C@@H]1O`, the inhibition was 2% (Genome polyprotein NS3 helicase domain; DNA binding, inhibitor; hepatitis C virus; 100 µM, together with: Cy5-dT15 DNA).

A few entries again:
`O=C(O)C1CN(CCCP(=O)(O)O)CCN1` (racemic) has an inhibition of 1% (Genome polyprotein NS3 helicase domain; DNA binding, inhibitor; hepatitis C virus; 100 µM, together with: Cy5-dT15 DNA).
`CN(C)C(=O)C(CCN1CCC(O)(c2ccc(Cl)cc2)CC1)(c1ccccc1)c1ccccc1` gave a V1/2 of 18 ± 5 mV (Calcium-activated potassium channel subunit alpha-1, with LRRC26 γ1 subunit (KCNMA1, Homo sapiens, UniProt Q12791); ion current, inside-out patch, mean of individual fits; BKα/γ1 channel; 0.1 µM, together with: nominally 0 Ca2+).
For `N#CC1CCN(C(=O)c2ccc(CCc3ccccc3)cc2)CC1`, the SPR response was -3.9 RU and -0.9 RU (WD repeat-containing protein 91 WD40 domain, residues 392–747; binding, SPR single-concentration screen; 45 µM).
Under “log2 fold change”, `CCN1CCC[C@H]1CNC(=O)c1c(O)c(Cl)cc(Cl)c1OC` is recorded as 0.785 (TAAR5 (Homo sapiens, UniProt O14804); β-arrestin recruitment, TANGO luminescence; concentration not given; relative to: basal luminescence).
